Assay results of several laboratories.
Method: steady-state kinetics
B1: mdlD (Pseudomonas putida, UniProt Q84DC3); chain MNYLSPAKIDSLFSAQKAYFATRATADVGFRKQSLERLKEAVINNKEALYSALAEDLGKPKDVVDLAEIGAVLHEIDFALAHLDEWVAPVSVPSPDIIAPSECYVVQEPYGVTYIIGPFNYPVNLTLTPLIGAIIGGNTCIIKPSETTPETSAVIEKIIAEAFAPEYVAVIQGGRDENSHLLSLPFDFIFFTGSPNVGKVVMQAAAKHLTPVVLELGGKCPLIVLPDADLDQTVNQLMFGKFINSGQTCIAPDYLYVHYSVKDALLERLVERVKTELPEINSTGKLVTERQVQRLVSLLEATQGQVLVGSQADVSKRALSATVVDGVEWNDPLMSEELFGPILPVLEFDSVRTAIDQVNKHHPKPLAVYVFGKDMDVAKGIINQIQSGDAQVNGVMLHAFSPYLPFGGIGASGMGEYHGHFSYLTFTHKKSVRIVP
B2: GLA (Homo sapiens, UniProt P06280); chain LDNGLARTPTMGWLHWERFMCNLDCQEEPDSCISEKLFMEMAELMVSEGWKDAGYEYLCIDDCWMAPQRDSEGRLQADPQRFPHGIRQLANYVHSKGLKLGIYADVGNKTCAGFPGSFGYYDIDAQTFADWGVDLLKFDGCYCDSLENLADGYKHMSLALNRTGRSIVYSCEWPLYMWPFQKPNYTEIRQYCNHWRNFADIDDSWKSIKSILDWTSFNQERIVDVAGPGGWNDPDMLVIGNFGLSWNQQVTQMALWAIMAAPLFMSNDLRHISPQAKALLQDKDVIAINQDPLGKQGYQLRQGDNFEVWERPLSGLAWAVAMINRQEIGGPRSYTIAVASLGKGVACNPACFITQLLPVKRKLGFYEWTSRLRSHINPTGTVLLQLENTMQMSLKDLL
B3: enzyme M350A/M389A (Pediococcus pentosaceus, UniProt A0AB73HHR8); chain MKNYTDYFFDEQAFDLHDGGYVPLEVSDAPEKPLNVPPLLKPDKETATDVYYTVTAEAGETQLLPGAKTKTWGYNTSLLGQTIVYRRGQHTHVTLKNTLPELTTFHWHGANVSGPYVDGGCHAPVYPGESKHIDFTLEQPATTLWLHAHPCPSTAEQVWHGLAAMVIVKDDHEASLPLPRNYGVDDIPVILQDRRFHENNQWDYRADYDPDGVAGPTAMINGTINPYFDVTTQKVRLRFLDGANRREWRLHFSDDLPFTQIGGDGSLLPEPVKFTHLMLTCAERAEVIVDFGQYHEGDEVTLYTDDVPLLKFRIHAFKPDQTTLPDKLFDVKAPVVDPALPVRHVVMQGADEGVAIDGKKFAMQRIDATQPIGKAQYWDVTNSNDAPGAVHPFHVHGTQFLVLSRNGHAPYPNEHGFKDTIGVNPGETVRLLVRFDLPGVYMYHCHIIEHEDGGMMAQIETFDPAKPKQEYKLMDMDTLMMALAKERGVKPSEIWMGGMQSYEKMGMKM
B4: enzyme (Salinispora arenicola, UniProt A8M783); chain MASTPWISFTTDYGLADGFVAACHGVLARLAPTARVIDVTHLVPPGDVRRGAAVLAQTVPYLPAAVHVAVVDPGVGTARRAIALTAGNGLLVGPDNGLLLDAATALGGVDAAVELTNPDWLGARMSATFHGRDVFAPVAARLALGAPLADAGPAVEPGALVRLPTPLVQPETDGFTAEVLTVDHFGNVQLAATGALLESLPRSLRVAHRPAVHARTFDDAPPGGLLVHVDSAGLVAVAVNGGRAADLLAVTPGDQLRVTAG
B5: LYS1 C205S/K77M (Saccharomyces cerevisiae, UniProt P38998); chain MAAVTLHLRAETKPLEARAALTPTTVKKLIAKGFKIYVEDSPQSTFNINEYRQAGAIIVPAGSWKTAPRDRIIIGLMEMPETDTFPLVHEHIQFAHCYKDQAGWQNVLMRFIKGHGTLYDLEFLENDQGRRVAAFGFYAGFAGAALGVRDWAFKQTHSDDEDLPAVSPYPNEKALVKDVTKDYKEALATGARKPTVLIIGALGRSGSGAIDLLHKVGIPDANILKWDIKETSRGGPFDEIPQADIFINCIYLSKPIAPFTNMEKLNNPNRRLRTVVDVSADTTNPHNPIPIYTVATVFNKPTVLVPTTAGPKLSVISIDHLPSLLPREASEFFSHDLLPSLELLPQRKTAPVWVRAKKLFDRHCARVKRSSRL
B6: enzyme (Sulfolobus acidocaldarius, UniProt Q4J7B6); chain MKGILIAFEGIDGSGKSSQASLLKSWLSKRRYTFITEWNSSEWIHDIIKEAKKKNLLTPLTFSLIHATDFADRYEKYILPMLKCGFVVIADRYIYTAYARDSVRGVDIEWVKKLYSFAVKPDITFYIRVPSEVALKRLKSSRRQIKPTEAGADVFPNLTPEEGFIKYQSSIIEVYDRIAEENNFVVVDGTKDPRQVQSEIRGKVMELWRREGL
B7: HMBS (Homo sapiens, UniProt P08397); chain SGNGNAAATAEENSPKMRVIRVGTRKSQLARIQTDSVVATLKASYPGLQFEIIAMSTTGDKILDTALSKIGEKSLFTKELEHALEKNEVDLVVHSLKDLPTVLPPGFTIGAICKRENPHDAVVFHPKFVGKTLETLPEKSVVGTSSLRRAAQLQRKFPHLEFRSIRGNLNTRLRKLDEQQEFSAIILATAGLQRMGWHNRVGQILHPEECMYAVGQGALGVEVRAKDQDILDLVGVLHDPETLLRCIAERAFLRHLEGGCSVPVAVHTAMKDGQLYLTGGVWSLDGSDSIQETMQATIHVPAQHEDGPEDDPQLVGITARNIPRGPQLAAQNLGISLANLLLSKGAKNILDVARQLNDAH
B8: ispG (Escherichia coli, UniProt P62620); chain MHNQAPIQRRKSTRIYVGNVPIGDGAPIAVQSMTNTRTTDVEATVNQIKALERVGADIVRVSVPTMDAAEAFKLIKQQVNVPLVADIHFDYRIALKVAEYGVDCLRINPGNIGNEERIRMVVDCARDKNIPIRIGVNAGSLEKDLQEKYGEPTPQALLESAMRHVDHLDRLNFDQFKVSVKASDVFLAVESYRLLAKQIDQPLHLGITEAGGARSGAVKSAIGLGLLLSEGIGDTLRVSLAADPVEEIKVGFDILKSLRIRSRGINFIACPTCSRQEFDVIGTVNALEQRLEDIITPMDVSIIGCVVNGPGEALVSTLGVTGGNKKSGLYEDGVRKDRLDNNDMIDQLEARIRAKASQLDEARRIDVQQVEK
B9: enzyme (UniProt P0DY30); chain ESPWIGVHFMVYTDKMLDQLAEQLPALSKRGVTHLILEINYHFAYKSHPELAPTNGITVVGAKKFADTARAHHIEIIPQINCLGHQSWKQNNAALLKHYPQFDETPGAYPDNKDIYCRSWCPQHPEVNRVVFALIDELIDAFEAKAFHVGMDEVFLIASEHCERCRGGDPAALFAKAVNDLHGHIVGKRGVQMLMWGDRLLDAEQTGYGKWEASGNGTAPAIDRIPKDIVLCDWHYEKRDRYPSLAVFLDKGFRVWPAGWKKPEAAEAFAAAARGCQNPRLLGYLCTTWGAVEIPNLADWPALLRPIEKIIAP

B1 (mdlD) — Km (NC(=O)c1ccc[n+]([C@@H]2O[C@H](COP(=O)(O)OP(=O)(O)OC[C@H]3O[C@@H](n4cnc5c(N)ncnc54)[C@H](O)[C@@H]3O)[C@@H](O)[C@H]2O)c1; pH 7.4, 30 °C, cofactor varied): 620 µM
B2 (GLA) — Km (O=c1ccc2nc3ccc(O[C@H]4O[C@H](CO)[C@H](O)[C@H](O)[C@H]4O)cc3oc-2c1): 20.9 µM
B3 (enzyme M350A/M389A) — Km (CCn1c(=NN=c2sc3cc(S(=O)(=O)O)ccc3n2CC)sc2cc(S(=O)(=O)O)ccc21; pH 3.7, 24 °C): 90 µM
B4 (enzyme) — Km (C[S+](CC[C@H](N)C(=O)O)C[C@H]1O[C@@H](n2cnc3c(N)ncnc32)[C@H](O)[C@@H]1O; pH 7.9, 37 °C, apparent, together with: 1-200 µM SAM): 1 µM
B5 (LYS1 C205S/K77M) — Km (NCCCC[C@H](N)C(=O)O; pH 7, 25 °C, together with: NADH 0.5 mM): 25000 µM
B6 (enzyme) — Km (Nc1ncnc2c1ncn2[C@@H]1O[C@H](COP(=O)(O)OP(=O)(O)OP(=O)(O)O)[C@@H](O)[C@H]1O; pH 7.4, 70 °C, apparent): 1660 µM
rCR (Lodderomyces parapsilosis, UniProt A1X808) — Km (O=C(CO)c1ccccc1; pH 7, 30 °C): 1040 µM
B7 (HMBS) — Km (NCc1[nH]cc(CCC(=O)O)c1CC(=O)O): 125 µM
B8 (ispG) — Km (C[C@]1(CO)O[C@@H]1COP(=O)(O)OP(=O)(O)O): 119 µM
enzyme (Mycosarcoma maydis, UniProt A0A0U2UYC4) — Km (O=C(O)/C=C(\CC(=O)O)C(=O)O; pH 5.5, 37 °C): 430 µM
enzyme (Ectocarpus siliculosus, UniProt D7FYY3) — Km (Nc1ncnc2c1ncn2[C@@H]1O[C@H](COP(=O)(O)OP(=O)(O)O)[C@@H](O)[C@H]1O; pH 5.5, 25 °C, together with: 16 mM PEP): 130 µM
B9 (enzyme) — Km (CC(=O)N[C@H]1[C@H](Oc2ccc([N+](=O)[O-])cc2)O[C@H](CO)[C@@H](O[C@@H]2O[C@H](CO)[C@H](O)[C@H](O)[C@H]2O)[C@@H]1O; pH 6, 50 °C): 1780 µM

For quick reference, copied from above:
B6 (enzyme) — Km (Nc1ncnc2c1ncn2[C@@H]1O[C@H](COP(=O)(O)OP(=O)(O)OP(=O)(O)O)[C@@H](O)[C@H]1O; pH 7.4, 70 °C, apparent): 1660 µM
